Assay results collected from several papers.
“And” joins repeats or separate records; there may be more than shown. Numbers after ± are the reported error.

`CC(=O)N[C@H](C(=O)N[C@@H](CCCNC(=N)N)C(=O)N[C@@H](CCCCN)C(=O)N[C@@H](CCCNC(=N)N)C(=O)N[C@H](C(=O)N[C@@]1(C)CCCC=CCCC[C@@](C)(C(=O)N[C@@H](CCC(N)=O)C(=O)N[C@@H](CCC(=O)O)C(=O)N[C@@H](CCCNC(=N)N)C(=O)N[C@@H](CCC(=O)O)C(=O)N[C@@H](CC(C)C)C(=O)N[C@H](C(=O)N[C@@H](CCC(=O)O)C(N)=O)C(C)C)NC(=O)[C@H](CC(C)C)NC(=O)[C@H](CCCNC(=N)N)NC(=O)[C@H](CCCNC(=N)N)NC1=O)[C@@H](C)O)C(C)C` has an IC50 of over 50 µM (A-431; cell viability; 18 h, serum-free).
`CC[C@H](C)[C@H](NC(=O)[C@H](CCCCN)NC(=O)[C@@H](NC(=O)[C@H](CCC(N)=O)NC(=O)[C@@H](N)CCCNC(=N)N)[C@@H](C)CC)C(=O)N[C@@H](Cc1c[nH]c2ccccc12)C(=O)N[C@@H](Cc1ccccc1)C(=O)N[C@@H](CCC(N)=O)C(=O)N[C@@H](CC(N)=O)C(=O)N[C@@H](CCCNC(=N)N)C(=O)N[C@@H](CCCNC(=N)N)C(=O)N[C@@H](CCSC)C(=O)N[C@@H](CCCCN)C(=O)N[C@@H](Cc1c[nH]c2ccccc12)C(=O)N[C@@H](CCCCN)C(=O)N[C@@H](CCCCN)C(=O)N[C@@H](CC(C)C)C(=O)N[C@@H](CCC(=O)O)C(=O)N[C@H](C(=O)N[C@@H](C)C(=O)N[C@H](C(=O)N[C@@H](CC(N)=O)C(=O)N[C@@H](CC(C)C)C(=O)N[C@@H](C)C(=O)N[C@@H](Cc1c[nH]c2ccccc12)C(=O)O)C(C)C)[C@@H](C)O` has an IC50 of 3.5 µM (MEC1; cell growth or viability, flow cytometry; 90 min).
With `Oc1cccc2cccnc12.Oc1cccc2cccnc12.[Cl][Fe]([Cl])[Cl]` the IC50 was 2.2 ± 0.8 µM (A2780; viability, MTT; 96 h).
With `Cc1sc2c(c1C)C(c1ccc(NC(=O)c3cc([N+](=O)[O-])ccc3F)cc1)=N[C@@H](CC(=O)OC(C)(C)C)c1nnc(C)n1-2` the IC50 was 7e-06 µM (Jurkat; cell growth or viability, ATP luminescence; 72 h).
`CC(C)C12OC1C1OC13C1(C)CCC4=C(COC4=O)C1CC1OC13C2OC(=O)CCC(=O)OC1OC(CO)C(O)C(O)C1O` (stereo not drawn) gave an IC50 of 3.85 µM (SNU-475; cell growth or viability, XTT; 47 h).
`COC(=O)[C@@H](NC(=O)[C@@H](NC(=O)[C@@H](NC(=O)[C@@H]1CCCN1C(=O)[C@H](C)NC(=O)OC(C)(C)C)C(C)C)C(C)C)C(C)C` gave an IC50 of 506 µM and 287 µM and 442 µM (HEK293; cell growth or viability, SRB).
The relative abundance of `COc1ccccc1-c1n[nH]c2nc(NC3CCN(C(=O)Cc4ccc(F)cc4F)CC3)ncc12` is reported as 0.82 (bead binding, competition bead pull-down, measured: LINJ.36.2790; Leishmania donovani axenic amastigote extract; 10 µM; reference: vehicle).
The IC50 of `Cc1cc(Oc2nc(N3CC[C@@H](c4ccncc4)C3)ncc2F)[nH]n1` is reported as 50.1 µM (Breast cancer cell lines; cell proliferation).
For `CC1CCC2C(C)C(OC(=O)CCC(=O)OC3C(C)OC(n4cc(F)c(=O)[nH]c4=O)C3OC(=O)CCC(=O)OC3OC4OC5(C)CCC6C(C)CCC(C3C)C46OO5)OC3OC4(C)CCC1C32OO4` (stereo not drawn), the IC50 was 0.83 µM (A2780; cell growth or viability, CCK-8).
The IC50 of `CC[C@H](C)[C@H](NC(=O)[C@H](CCCCN)NC(=O)[C@@H](NC(=O)[C@H](CCC(N)=O)NC(=O)[C@H](CCCNC(=N)N)NC(=O)[C@H](CC(C)C)NC(=O)CNC(=O)[C@H](Cc1ccccc1)NC(=O)CNC(=O)[C@H](Cc1ccc(O)cc1)NC(=O)CNC(=O)[C@H](CCCCN)NC(=O)[C@@H](NC(=O)[C@H](Cc1ccccc1)NC(=O)[C@@H](NC(=O)[C@H](CC(=O)O)NC(=O)[C@H](CCCNC(=N)N)NC(=O)[C@H](C)NC(=O)[C@H](CO)NC(=O)[C@H](CCCCN)NC(=O)CN)C(C)C)[C@@H](C)O)[C@@H](C)CC)C(=O)N[C@@H](Cc1c[nH]c2ccccc12)C(=O)N[C@@H](Cc1ccccc1)C(=O)N[C@@H](CCC(N)=O)C(=O)N[C@@H](CC(N)=O)C(=O)N[C@@H](CCCNC(=N)N)C(=O)N[C@@H](CCCNC(=N)N)C(=O)N[C@@H](CCSC)C(=O)N[C@@H](CCCCN)C(=O)N[C@@H](Cc1c[nH]c2ccccc12)C(=O)N[C@@H](CCCCN)C(=O)N[C@@H](CCCCN)C(=O)O` is reported as 2.5 µM (MEC1; cell growth or viability, flow cytometry; 90 min).
`CC(=O)N[C@H](C(=O)N[C@@H](CCCNC(=N)N)C(=O)N[C@@H](CCCCN)C(=O)N[C@@H](CCCNC(=N)N)C(=O)N[C@H](C(=O)N[C@@H](CC(C)C)C(=O)N[C@@H](CCCNC(=N)N)C(=O)N[C@]1(C)CCCC=CCCC[C@@](C)(C(=O)N[C@@H](CCC(=O)O)C(=O)N[C@@H](CCCNC(=N)N)C(=O)N[C@@H](CCC(=O)O)C(=O)N[C@@H](CC(C)C)C(=O)N[C@H](C(=O)N[C@@H](CCC(=O)O)C(N)=O)C(C)C)NC(=O)[C@H](CC(C)C)NC(=O)[C@H](CC(C)C)NC1=O)[C@@H](C)O)C(C)C` has an IC50 of over 100 µM (A-431 (wild-type EGFR); cell viability; 18 h).
The IC50 of `CC[C@H](C)[C@H](NC(=O)[C@H](C)NC(=O)[C@@H](N)Cc1c[nH]cn1)C(=O)N[C@@H](Cc1ccc(O)cc1)C(=O)N1CCC[C@H]1C(=O)N[C@@H](CCCNC(=N)N)C(=O)N[C@@H](Cc1c[nH]cn1)C(=O)N[C@@H](CO)C(=O)N[C@@H](Cc1c[nH]c2ccccc12)C(=O)N[C@H](C(=O)N[C@@H](Cc1c[nH]c2ccccc12)C(=O)N[C@@H](CCC(=O)O)C(=O)N[C@@H](CCCCN)C(=O)N[C@@H](CCCCN)C(=O)N[C@@H](CC(C)C)C(=O)N[C@@H](CCC(=O)O)C(=O)N[C@H](C(=O)N[C@@H](C)C(=O)N[C@H](C(=O)N[C@@H](CC(N)=O)C(=O)N[C@@H](CC(C)C)C(=O)N[C@@H](C)C(=O)N[C@@H](Cc1c[nH]c2ccccc12)C(=O)N[C@H](C(=O)N[C@@H](C)C(=O)NCC(=O)N[C@@H](CC(N)=O)C(=O)N[C@@H](CO)C(=O)N[C@@H](CC(N)=O)C(=O)N[C@@H](CCCCN)C(=O)N[C@@H](Cc1c[nH]c2ccccc12)C(=O)N[C@H](C(=O)N[C@@H](Cc1c[nH]c2ccccc12)C(=O)N[C@@H](CCCCN)C(N)=O)[C@@H](C)O)[C@@H](C)O)C(C)C)[C@@H](C)O)[C@@H](C)O` is reported as over 6.8 µM (MEC1; cell growth or viability, flow cytometry; 90 min).
`CC[C@H](C)[C@@H]([C@@H](CC(=O)N1CCC[C@H]1[C@H](OC)[C@@H](C)C(=O)N[C@H](C)[C@@H](O)c1ccccc1)OC)N(C)C(=O)[C@@H](NC(=O)[C@H](C(C)C)N(C)C(=O)OCc1ccc(NC(=O)[C@H](CCCNC(N)=O)NC(=O)[C@@H](NC(=O)CCCc2cn(CC(=O)NCCCC[C@H]3NC(=O)[C@H](CCCCN)NC(=O)[C@H](CCCNC(N)=O)NC(=O)[C@H](Cc4ccc(O)cc4)NC(=O)[C@@H](NC(=O)[C@H](Cc4ccc5ccccc5c4)NC(=O)[C@H](CCCNC(=N)N)NC(=O)[C@@H](N)CCCNC(=N)N)CSSC[C@@H](C(=O)N[C@@H](CCCNC(=N)N)C(N)=O)NC(=O)[C@H](CCCNC(N)=O)NC(=O)[C@H](CCCNC(=N)N)NC(=O)[C@H](Cc4ccc(O)cc4)NC(=O)[C@@H]4CCCN4C3=O)nn2)C(C)C)cc1)C(C)C` has an IC50 of 0.583 µM (Daudi; cell growth or viability, CCK-8).
`CCCCCCCC(=O)NCCCC[C@H](NC(=O)CCCCCCC)C(=O)N[C@@H](CCCCNC(=O)CCCCCCC)C(=O)NCC(=O)NCC(=O)NCC(=O)N[C@@H](CS)C(=O)N[C@@H](CCCNC(=N)N)C(=O)N[C@@H](CCCCN)C(=O)N1CCC[C@H]1C(=O)N[C@@H](CS)C(=O)N[C@@H](CCCNC(=N)N)C(=O)N[C@@H](CCCCN)C(=O)N1CCC[C@H]1C(=O)N[C@@H](CS)C(=O)N[C@@H](CCCNC(=N)N)C(=O)N[C@@H](CCCCN)C(=O)N1CCC[C@H]1C(N)=O` has an IC50 of 139 µM (HCE-T; cytotoxicity, MTT; 24 h).
With `CC(C)C12OC1C1OC13C1(C)CCC4=C(COC4=O)C1CC1OC13C2OC(=O)CCCOC1OC(CO)C(O)C(O)C1O` (stereo not drawn) the IC50 was 5.95 µM (RPMI-7951; cell growth or viability, XTT; 47 h).
`CC(=O)N[C@H](C(=O)N[C@@H](CCCNC(=N)N)C(=O)N[C@@H](CCCCN)C(=O)N[C@@H](CCCNC(=N)N)C(=O)N[C@]1(C)CCCCCCC=CCCC[C@@](C)(C(=O)N[C@@H](CCCNC(=N)N)C(=O)N[C@@H](CCC(=O)O)C(=O)N[C@@H](CC(C)C)C(=O)N[C@H](C(=O)N[C@@H](CCC(=O)O)C(N)=O)C(C)C)NC(=O)[C@H](CCC(N)=O)NC(=O)[C@H](C)NC(=O)[C@H](C)NC(=O)[C@H](CCCNC(=N)N)NC(=O)[C@H](CCCNC(=N)N)NC(=O)[C@H](C)NC1=O)C(C)C` gave an IC50 of 15.2 µM (A-431; cell viability; 18 h, serum-free).
For `CC(=O)[O][Pt]([NH2])([NH2])([Cl])([Cl])[O]C(=O)C(Cl)Cl`, the IC50 was 0.86 ± 0.2 µM (2008 ovarian adenocarcinoma; cytotoxicity, MTT; 72 h).
The IC50 of `CCCCCCCC(=O)NCCCC[C@H](NC(=O)CCCCCCC)C(=O)N[C@@H](CCCCNC(=O)CCCCCCC)C(=O)NCC(=O)NCC(=O)NCC(=O)N[C@@H](CS)C(=O)N[C@@H](CCCNC(=N)N)C(=O)N[C@@H](CCCCN)C(=O)N1CCC[C@H]1C(N)=O` is reported as 290 µM (HCE-T; cytotoxicity, MTT; 24 h).
The IC50 of `CC(=O)N[C@H](C(=O)N[C@@H](CCCNC(=N)N)C(=O)N[C@@H](CCCCN)C(=O)N[C@@H](CCCNC(=N)N)C(=O)NC(C)(C)C(=O)N[C@@H](CC(C)C)C(=O)N[C@@H](CCCNC(=N)N)C(=O)N[C@@H](CCCNC(=N)N)C(=O)N[C@@H](CC(C)C)C(=O)N[C@@H](CC(C)C)C(=O)N[C@@H](CCC(N)=O)C(=O)NC(C)(C)C(=O)N[C@@H](CCCNC(=N)N)C(=O)N[C@@H](CCC(=O)O)C(=O)N[C@@H](CC(C)C)C(=O)N[C@H](C(=O)N[C@@H](CCC(=O)O)C(N)=O)C(C)C)C(C)C` is reported as over 100 µM (A-431 (wild-type EGFR); cell viability; 18 h).
`CCC1=C(C)C2=C(c3ccc(C(=O)NCCNC(=O)c4ccc(P(=NC(=O)c5ccccn5)(c5ccccc5)c5ccccc5)cc4)cc3)c3c(C)c(CC)c(C)n3[B-](F)(F)[N+]2=C1C`: IC50 “not toxic” (IMR-90; cell viability, MTT; 72 h, 0.1% DMSO).
`Cc1cc(Nc2nc(C[C@@]3(C(=O)O)CCN(Cc4cccc(Cl)c4F)[C@H](C)C3)cc(C)c2F)[nH]n1` gave an IC50 of 0.038 µM (BT-20; cell growth or viability, ATP luminescence; 5 days).

For quick reference, copied from above:
With `CC(C)C12OC1C1OC13C1(C)CCC4=C(COC4=O)C1CC1OC13C2OC(=O)CCCOC1OC(CO)C(O)C(O)C1O` (stereo not drawn) the IC50 was 5.95 µM (RPMI-7951; cell growth or viability, XTT; 47 h).
